Earlier results as cited in several papers.
Each line is one published result; not all experiments were run side by side.

The chains behind the UniProt entries cited, without tags or fusion partners.
UniProt P29476, whole entry: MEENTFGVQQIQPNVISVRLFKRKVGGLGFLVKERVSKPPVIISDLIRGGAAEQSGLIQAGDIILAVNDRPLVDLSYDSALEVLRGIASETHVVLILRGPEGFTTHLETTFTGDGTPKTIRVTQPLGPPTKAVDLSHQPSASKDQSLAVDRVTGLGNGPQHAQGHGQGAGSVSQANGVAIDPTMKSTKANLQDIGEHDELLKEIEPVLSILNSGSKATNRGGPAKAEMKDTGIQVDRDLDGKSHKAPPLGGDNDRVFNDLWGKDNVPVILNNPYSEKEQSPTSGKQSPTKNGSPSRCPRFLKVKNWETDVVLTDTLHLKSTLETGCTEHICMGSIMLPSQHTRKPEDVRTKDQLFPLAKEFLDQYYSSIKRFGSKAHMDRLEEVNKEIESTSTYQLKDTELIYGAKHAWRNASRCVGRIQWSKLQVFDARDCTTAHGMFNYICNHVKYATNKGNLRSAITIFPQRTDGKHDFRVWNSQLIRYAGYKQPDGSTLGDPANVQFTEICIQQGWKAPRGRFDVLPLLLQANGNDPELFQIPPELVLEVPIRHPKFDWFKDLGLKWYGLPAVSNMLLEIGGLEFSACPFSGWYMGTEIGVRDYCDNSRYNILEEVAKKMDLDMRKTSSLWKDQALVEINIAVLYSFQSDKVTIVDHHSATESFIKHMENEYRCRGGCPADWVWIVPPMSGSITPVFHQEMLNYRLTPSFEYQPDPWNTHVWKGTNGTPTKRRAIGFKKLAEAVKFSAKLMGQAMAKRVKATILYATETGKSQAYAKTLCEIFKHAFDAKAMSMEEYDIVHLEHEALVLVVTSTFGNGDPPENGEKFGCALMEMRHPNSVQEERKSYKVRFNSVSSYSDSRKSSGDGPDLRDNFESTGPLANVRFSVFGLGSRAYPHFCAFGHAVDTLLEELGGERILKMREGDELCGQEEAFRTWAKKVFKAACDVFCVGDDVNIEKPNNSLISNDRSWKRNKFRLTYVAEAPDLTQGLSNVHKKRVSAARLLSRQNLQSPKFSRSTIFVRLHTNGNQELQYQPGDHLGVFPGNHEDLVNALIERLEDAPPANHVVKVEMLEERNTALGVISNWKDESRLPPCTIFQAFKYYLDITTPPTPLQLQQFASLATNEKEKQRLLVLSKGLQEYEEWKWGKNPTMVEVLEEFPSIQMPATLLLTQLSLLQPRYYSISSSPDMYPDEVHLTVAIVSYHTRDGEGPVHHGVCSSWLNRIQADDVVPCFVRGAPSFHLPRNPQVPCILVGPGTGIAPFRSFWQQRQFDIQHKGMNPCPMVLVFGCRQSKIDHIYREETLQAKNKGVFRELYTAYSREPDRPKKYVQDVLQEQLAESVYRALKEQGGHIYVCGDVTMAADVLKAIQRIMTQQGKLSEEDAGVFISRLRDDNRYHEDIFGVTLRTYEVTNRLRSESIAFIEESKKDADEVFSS
UniProt P00533, whole entry, looked up: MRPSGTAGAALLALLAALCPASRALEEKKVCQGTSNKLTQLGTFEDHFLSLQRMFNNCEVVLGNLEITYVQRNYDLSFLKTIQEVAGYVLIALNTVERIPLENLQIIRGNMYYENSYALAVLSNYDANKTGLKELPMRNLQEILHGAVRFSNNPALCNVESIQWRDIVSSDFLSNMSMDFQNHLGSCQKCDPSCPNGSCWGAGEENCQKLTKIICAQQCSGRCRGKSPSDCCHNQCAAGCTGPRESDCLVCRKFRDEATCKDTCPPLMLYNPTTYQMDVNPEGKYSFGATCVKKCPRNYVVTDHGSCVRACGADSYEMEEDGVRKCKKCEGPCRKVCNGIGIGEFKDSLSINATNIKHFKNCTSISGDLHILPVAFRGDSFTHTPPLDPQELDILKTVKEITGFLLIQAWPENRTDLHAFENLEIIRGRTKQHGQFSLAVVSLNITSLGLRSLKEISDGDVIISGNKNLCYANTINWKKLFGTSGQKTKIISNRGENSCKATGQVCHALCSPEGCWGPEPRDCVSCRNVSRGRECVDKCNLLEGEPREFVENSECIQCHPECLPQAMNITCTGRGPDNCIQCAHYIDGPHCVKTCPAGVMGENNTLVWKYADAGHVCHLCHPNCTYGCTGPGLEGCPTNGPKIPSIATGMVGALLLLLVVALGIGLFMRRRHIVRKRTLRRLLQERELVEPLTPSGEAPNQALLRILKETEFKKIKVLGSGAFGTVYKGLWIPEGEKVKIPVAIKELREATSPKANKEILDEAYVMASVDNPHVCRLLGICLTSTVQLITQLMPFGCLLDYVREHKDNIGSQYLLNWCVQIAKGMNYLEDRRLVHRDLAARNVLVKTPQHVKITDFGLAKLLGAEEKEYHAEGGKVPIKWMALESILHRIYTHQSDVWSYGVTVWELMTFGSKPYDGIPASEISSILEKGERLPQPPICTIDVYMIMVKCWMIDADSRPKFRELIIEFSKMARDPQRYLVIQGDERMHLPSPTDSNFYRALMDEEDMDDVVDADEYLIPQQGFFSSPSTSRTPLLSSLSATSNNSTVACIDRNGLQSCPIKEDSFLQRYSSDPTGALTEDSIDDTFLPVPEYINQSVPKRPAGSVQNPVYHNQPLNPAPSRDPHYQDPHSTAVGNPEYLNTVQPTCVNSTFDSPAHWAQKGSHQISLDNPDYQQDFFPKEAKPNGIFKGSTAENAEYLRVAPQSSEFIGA

SMILES | tested on | assay | system | conditions | scale | measurement | result
O=C(/C=C/c1nc2ccccc2[nH]1)c1c(-c2ccccc2)c2cc(Cl)ccc2[nH]c1=O | AKT | kinase activity, ATP-competitive inhibitor | – | – | – | IC50 | 2300 nM
Cc1cc(N)nc(CCc2cccc(C(O)Cc3cc(C)cc(N)n3)c2)c1 (stereo not shown) | Nos1 (Rattus norvegicus, UniProt P29476) | – | – | – | relative to: Ki bovine eNOS over Ki nNOS | selectivity ratio | 107
COc1cc(N2CCC(N3CCN(C)CC3)CC2)ccc1Nc1ncc(Cl)c(Nc2ccccc2NS(C)(=O)=O)n1 | EGFR (Homo sapiens, UniProt P00533) | enzyme activity, inhibitor | – | with: ATP at Km | – | IC50 | 21.2 nM
O=C(Nc1ccc(-c2nc3ccccc3s2)cc1)C1CCN(S(=O)(=O)c2ccccc2Cl)CC1 | – | – | human liver microsomes | – | – | apparent intrinsic clearance | 76.5 µL/min/mg
